Results gathered from unrelated publications.
Numbered parts are unrelated; each lists some results of a single study. Substitutions count along the parent as printed.

Block 1 — observed: peptide-MHC binding; molecule type: peptide; tested at: concentration not given
Target: HLA class I histocompatibility antigen, A alpha chain, allele A*25:01 (Homo sapiens, UniProt P04439)
For `ALGGSCHTT`, binding read “inactive”.
For `SVFALLPPQ`, binding read “inactive”.
`EIKDRILSY`: binding “active”.
Under binding, `WSTIWRQLY` is recorded as “inactive”.
Under binding, `KMFTYLMES` is recorded as “inactive”.
`VTGCASLYV`: binding “inactive”.
For `VLSDLCNFL`, binding read “inactive”.
`STGKSIKFK`: binding “inactive”.
`RYSHWTKL` — result for binding: “inactive”.
For `TTEANAGQF`, binding read “inactive”.
For `SSDLRSWTF`, binding read “inactive”.
`TTDDSTSYY` — result for binding: “inactive”.
`LLIQGLKTV`: binding “inactive”.
For `QQRPDLILV`, binding read “inactive”.
`AFHQLVQVI` — result for binding: “inactive”.
`NYNGLLSSI`: binding “inactive”.

Block 2 — target: CCND2, cyclin fold, Cln2 fusion (human); method: yeast growth competition, sequencing; matrix: yeast; notes: strong parent motif; baseline: not given; direction: higher = stronger binding
Starting sequence: viral docking peptide; YKVKRRLVFGADD; partner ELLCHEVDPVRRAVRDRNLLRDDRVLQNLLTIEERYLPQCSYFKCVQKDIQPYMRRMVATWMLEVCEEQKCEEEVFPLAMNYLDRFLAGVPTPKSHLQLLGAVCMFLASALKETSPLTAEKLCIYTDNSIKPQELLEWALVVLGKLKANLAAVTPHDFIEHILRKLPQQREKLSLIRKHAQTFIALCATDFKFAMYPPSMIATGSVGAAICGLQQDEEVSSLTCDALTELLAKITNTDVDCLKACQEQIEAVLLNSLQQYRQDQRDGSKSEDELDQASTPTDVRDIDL
Under “normalised enrichment score”, `D12K` is recorded as 0.31.
`A11E` — result for “normalised enrichment score”: 2.02.
`D12I` — result for “normalised enrichment score”: 0.677.
For `V8W`, “normalised enrichment score” read 0.314.
`G10R` — result for “normalised enrichment score”: 0.941.
Under “normalised enrichment score”, `V3A` is recorded as 2.7.
For `G10T`, “normalised enrichment score” read 1.43.
For `K4N`, “normalised enrichment score” read 1.
`D12C` — result for “normalised enrichment score”: 0.815.
`K2F`: “normalised enrichment score” 0.565.
Under “normalised enrichment score”, `R6K` is recorded as 1.48.
`G10L`: “normalised enrichment score” 0.771.
`V3C` — result for “normalised enrichment score”: 1.97.
`A11P`: “normalised enrichment score” 2.
For `V3M`, “normalised enrichment score” read 0.413.
`R6P`: “normalised enrichment score” 0.372.
`D12G`: “normalised enrichment score” 1.67.
Under “normalised enrichment score”, `K2V` is recorded as 1.04.
`V8N`: “normalised enrichment score” 1.29.

Block 3 — target: UBE2D4 UBC core domain (UniProt Q9Y2X8); method: yeast two-hybrid; matrix: yeast; notes: mostly zero background; baseline: not given; direction: higher = stronger interaction
B1: ZMYND11 RING domain (UniProt Q15326); chain DEIDWETENHDWYCFECHLPGEVLICDLCFRVYHSKCLSDEFRLRDSSSPWQCPVCRSIKKKNTNKQEM
B2: TRIM11 RING domain (UniProt Q96F44); chain LSTNLQEEATCAICLDYFTDPVMTDCGHNFCRECIRRCWGQPEGPYACPECRELSPQRNLRP
B3: BFAR RING domain (UniProt Q9NZS9); chain GPQISVSEFSCHCCYDILVNPTTLNCGHSFCRHCLALWWASSKKTECPECREKWEGFPKVS
B4: RNF103 RING domain (UniProt O00237); chain WPADMLHCTECVVCLENFENGCLLMGLPCGHVFHQNCIVMWLAGGRHCCPVCRWPSYKKKQPY
B5: NFX1 RING domain (UniProt Q12986); chain IEQLTTEKYECMVCCELVRVTAPVWSCQSCYHVFHLNCIKKWARSPASQADGQSGWRCPACQNVSAHVPNTY
B6: HLTF RING domain (UniProt Q14527); chain LILSSGSDEECAICLDSLTVPVITHCAHVFCKPCICQVIQNEQPHAKCPLCRNDIHEDNLLE
B7: MKRN3 RING domain (UniProt Q13064); chain FAVQRGMDKVCGICMEVVYEKANPNDRRFGILSNCNHSFCIRCIRRWRSARQFENRIVKSCPQCRVTSELVIPSE
B8: ZNRF4 RING domain (UniProt Q8WWF5); chain VRTFTWHNDLCAICLDEYEEGDQLKILPCSHTYHCKCIDPWFSQAPRRSCPVCKQSVAATEDSF
B9: RNF186 RING domain (UniProt Q9NXI6); chain HSGSTECDLECLVCREPYSCPRLPKLLACQHAFCAICLKLLLCVQDNTWSITCPLCRKVTAVPGGLI
Construct (chain): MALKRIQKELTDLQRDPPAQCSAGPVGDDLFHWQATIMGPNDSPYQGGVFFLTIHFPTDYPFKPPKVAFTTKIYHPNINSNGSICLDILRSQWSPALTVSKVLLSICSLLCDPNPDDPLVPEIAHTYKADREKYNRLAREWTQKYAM
`B1 (ZMYND11 RING domain)`: “lacZ reporter activity” 0.
For `ASEEEFQFLRCQQCQAEAKCPKLLPCLHTLCSGCLEASGMQCPICQAPWPLGADTP (PML RING domain (UniProt P29590))`, “lacZ reporter activity” read 0.
`B2 (TRIM11 RING domain)`: “lacZ reporter activity” 0.
`B3 (BFAR RING domain)`: “lacZ reporter activity” 0.
For `B4 (RNF103 RING domain)`, “lacZ reporter activity” read 16400.
`B5 (NFX1 RING domain)`: “lacZ reporter activity” 0.
For `B6 (HLTF RING domain)`, “lacZ reporter activity” read 0.
Under “lacZ reporter activity”, `B7 (MKRN3 RING domain)` is recorded as 0.
Under “lacZ reporter activity”, `B8 (ZNRF4 RING domain)` is recorded as 13000.
Under “lacZ reporter activity”, `B9 (RNF186 RING domain)` is recorded as 0.

Block 4 — method: RNA Bind-n-Seq; molecule type: RNA; matrix: in vitro; tested at: not given; notes: 4-mer, random 30-nt RNA, single round; together with: RocA, ADP, phosphate; baseline: input library; direction: higher = stronger binding
Target: Eukaryotic initiation factor 4A-I (EIF4A1, Homo sapiens, UniProt P60842, residues 1-406, full length assumed)
UniProt P60842, sequence (whole entry, looked up): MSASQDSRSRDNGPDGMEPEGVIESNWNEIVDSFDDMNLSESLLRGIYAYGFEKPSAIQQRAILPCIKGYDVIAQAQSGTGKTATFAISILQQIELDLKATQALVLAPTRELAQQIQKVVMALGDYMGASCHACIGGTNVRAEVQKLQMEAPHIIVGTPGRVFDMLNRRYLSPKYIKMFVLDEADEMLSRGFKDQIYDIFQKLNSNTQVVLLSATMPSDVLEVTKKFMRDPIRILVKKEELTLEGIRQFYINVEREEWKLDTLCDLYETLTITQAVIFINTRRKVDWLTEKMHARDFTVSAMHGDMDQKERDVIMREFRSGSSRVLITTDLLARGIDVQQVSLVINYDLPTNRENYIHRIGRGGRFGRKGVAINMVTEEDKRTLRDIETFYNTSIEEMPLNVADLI
With `UGGU` the 4-mer enrichment was 0.955 fold.
The 4-mer enrichment of `GUGU` is reported as 1.18 fold.
The 4-mer enrichment of `CCGA` is reported as 0.822 fold.
The 4-mer enrichment of `CGUU` is reported as 0.758 fold.
The 4-mer enrichment of `GGAA` is reported as 1.49 fold.
With `CAAU` the 4-mer enrichment was 0.729 fold.
`CCCG` gave a 4-mer enrichment of 0.662 fold.
The 4-mer enrichment of `AACU` is reported as 0.698 fold.

A few entries again (block 4):
The 4-mer enrichment of `CGUU` is reported as 0.758 fold.
`CCCG` gave a 4-mer enrichment of 0.662 fold.
The 4-mer enrichment of `GUGU` is reported as 1.18 fold.
The 4-mer enrichment of `AACU` is reported as 0.698 fold.
The 4-mer enrichment of `GGAA` is reported as 1.49 fold.
With `CAAU` the 4-mer enrichment was 0.729 fold.
